Results gathered from unrelated publications.
Parts stem from different laboratories: compare values within a part only.

Block 1 — technique: competition protein-binding microarray; molecule type: double-stranded DNA, one strand shown; matrix: in vitro; tested at: 2 µM; together with: Cbf1 competitor, 0.05 µM; direction: higher = stronger binding; constant ends, left off below: … GTCTTGATTCGCTTGACGCTGCTG
Target: Phosphate system positive regulatory protein PHO4, full length, GST-tagged (PHO4, Saccharomyces cerevisiae, UniProt P07270, residues 1-312)
Notes: whole 60-bp probe, lowest competitor level
Residues (chain): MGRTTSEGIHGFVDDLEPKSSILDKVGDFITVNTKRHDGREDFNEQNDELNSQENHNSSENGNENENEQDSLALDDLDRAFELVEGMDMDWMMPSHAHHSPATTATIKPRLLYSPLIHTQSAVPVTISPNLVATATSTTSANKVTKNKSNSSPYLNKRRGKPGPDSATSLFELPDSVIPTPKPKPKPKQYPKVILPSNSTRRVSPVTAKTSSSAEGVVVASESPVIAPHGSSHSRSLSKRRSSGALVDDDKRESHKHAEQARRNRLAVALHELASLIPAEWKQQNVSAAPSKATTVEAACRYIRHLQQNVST
For `CTAACGAAGGTTTTTCACGTGGCTTACAAGCCAAGT`, the fluorescence intensity was 15800 a.u.
With `GTCTATCTTGACCAGCGCGTGGTCGGCCGCCAATGC` the fluorescence intensity was 9420 a.u.
With `AGCAGAATTACCCTCCACGTTGATTGTCTGCGAGGC` the fluorescence intensity was 11100 a.u.
With `TCATAGTAGGTTTGTCATGCGCGTTGGAAAAAGAAA` the fluorescence intensity was 6700 a.u.
The fluorescence intensity of `TGGTAGTAACCAAAGCACGCTTGTCCTTGTGTTCGG` is reported as 8800 a.u.
The fluorescence intensity of `ACTTCATTCGGTGCTTCCGTGACGGGTTCAACGGCT` is reported as 4810 a.u.
The fluorescence intensity of `TGCGCAACAACTTTTCACGTGTACTTATGTCTAGAA` is reported as 12900 a.u.
`AAAGTAGCATTCCGTTACGTGATGGGTACTTTAACC` gave a fluorescence intensity of 4850 a.u.

Block 2 — technique: RNA Bind-n-Seq; molecule type: RNA; matrix: in vitro; tested at: not given; reference: input RNA pool; direction: higher = stronger binding
Target: RING finger protein unkempt homolog, zinc fingers 1-6, GST-SBP tag (UNK, Homo sapiens, UniProt Q9C0B0, residues 30-357)
Chain of UniProt Q9C0B0 (30-357, looked up): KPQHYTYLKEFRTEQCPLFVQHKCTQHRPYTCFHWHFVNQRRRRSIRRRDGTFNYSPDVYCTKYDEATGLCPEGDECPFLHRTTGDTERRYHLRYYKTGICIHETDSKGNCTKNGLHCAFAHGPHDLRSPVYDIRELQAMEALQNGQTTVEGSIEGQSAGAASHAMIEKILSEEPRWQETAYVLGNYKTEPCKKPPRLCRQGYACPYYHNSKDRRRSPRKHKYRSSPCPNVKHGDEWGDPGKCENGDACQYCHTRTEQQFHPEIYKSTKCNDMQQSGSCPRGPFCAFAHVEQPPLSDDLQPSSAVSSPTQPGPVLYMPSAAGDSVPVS
Notes: RNA with constant flanks, human and mouse sites, ends assumed
Constant ends, left off below: GGGAGUUCUACAGUCCGACGAUC … CAACAGAGGAUUGAGCAUCA
`CGUCCCGUCCGCGUGGUGUGAAGCGGCGCUGGAGGCUUAGUCGUAUAGUCUUCCGUCACUUAGCUGACCAUGGGCAACUUUCUGGGAUCCAGCGAGCGACAUGGUAAAUGAGCUCCAGAA` gave a bound/input enrichment of 0.138 ratio.
`CAUGAUCUUGUUACUGUGAUAUUUUAAAUAUCCACAGUACUCACUUUUUCCAAAUGAUCCUAGUAAUUGCCUAGAAAUAUCUUUCUCUUACCUGUUAUUUAUCAAUUUUUCCCAGUAUUU` gave a bound/input enrichment of 5.94 ratio.
`CAUAUUAAAUAUGACCCAGAAAUUAUUGGUCCUAGAGAUAUUAUCCAUACAAUUGAAAGCUUAGGUUUUGAAGCUUCUUUGGUCAAGAAGGAUCGGUCAGCAAGUCACUUAGAUCAUAAA` has a bound/input enrichment of 3.57 ratio.
The bound/input enrichment of `AUUUGCUAUUUUCUAUUAAACAUGUGACAUUAUUAUCUCUUCCUCUAGAGAUGUGAUACCUCAAAGCACAGAGUUCUGGUUGUGUCUGUGUGUCCUCAGUCUCUACCUUAUUUUGCUGCU` is reported as 1.85 ratio.
The bound/input enrichment of `AUAGAUAAAUGCAGACAGCAGCUGCACGAUAUCACGGUGCCUCUGGAAGUUUUUGAAUACAUUGAUCAAGGUCGGAAUCCCCAGCUCUACACCAAAGAAUGCCUGGAGAGGGCUCUAGCU` is reported as 0.184 ratio.
The bound/input enrichment of `AUUUUGUAAAUACUGUAUACCAUGUAUUAUGUGUAUAUUGUUCAUACUUGAGAGGUAUAUUAUAGUUUUGUUAUGAAAGUAUGUAUUUUGCCCUGCCCACAUUGCAGGUGUUUUGUAUAU` is reported as 4.62 ratio.

Block 3 — technique: protein binding microarray; molecule type: double-stranded DNA, one strand shown; matrix: in vitro; tested at: not given; reference: not given; direction: higher = stronger binding
Target: Histone acetyltransferase KAT6A, winged helix 1, GST fusion (KAT6A, Homo sapiens, UniProt Q92794, residues 1-85)
Notes: 8-mer, flanks averaged, mean of 2 arrays, mostly near background
Construct (chain): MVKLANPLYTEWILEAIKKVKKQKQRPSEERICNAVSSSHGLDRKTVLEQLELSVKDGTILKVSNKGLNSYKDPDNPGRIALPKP
The E-score of `AACTGATG` is reported as -0.0237.
For `CTTGATCC`, the E-score was -0.163.
`GCCGACAC` gave an E-score of 0.259.
With `AGAAGTCT` the E-score was -0.128.
With `AGTAACAA` the E-score was -0.0147.
`ACCTTACC` has an E-score of -0.0855.
With `AAGGGGCC` the E-score was -0.093.

Further values, each from its own experiment
`PhoQ, residues 284 288 289 292 302 303 ALAMYF` has a fold induction of 9.57 (PhoP, residues 12 14 15 18 19 LYFRQ (Escherichia coli, UniProt P23836); Sort-seq, measured: YFP reporter; E. coli; PhoQ-PhoP variant library, together with: 10 µM Mg2+; reference: high Mg2+ state, higher = stronger signaling).
